Results pooled from the literature.
Every numbered part comes from another study and shows a few of its results, in no order. Substitutions count along the parent as printed.

Series 1 — Substance: HSPD1 (Homo sapiens, UniProt P10809); technique: cross-linking MS; medium: cell fractions
partner | added | cross-linked residues
FAM120B (Homo sapiens, UniProt Q96EK7) | DMTMM | D531 to K97
ANKRD35 (Homo sapiens, UniProt Q8N283) | DHSO | D100 to E542
LYRM2 (Homo sapiens, UniProt Q9NU23) | DMTMM | D399 to K14
NT5C1B (Homo sapiens, UniProt Q96P26) | DMTMM | E386 to K523
ATP5F1A (Homo sapiens, UniProt P25705) | DSSO | K133 to K531

Series 2 — technique: DHFR PCA, deep sequencing; medium: yeast; added: (+)-ABA 4.8 µM; baseline: wild-type fitted maximum; reading: higher = stronger binding
Target: ABI1, truncated, D143A, DHFR fusion (Arabidopsis thaliana)
Notes: methotrexate growth selection, single substitutions
Starting sequence: PYL1, truncated, DHFR fusion (Arabidopsis thaliana); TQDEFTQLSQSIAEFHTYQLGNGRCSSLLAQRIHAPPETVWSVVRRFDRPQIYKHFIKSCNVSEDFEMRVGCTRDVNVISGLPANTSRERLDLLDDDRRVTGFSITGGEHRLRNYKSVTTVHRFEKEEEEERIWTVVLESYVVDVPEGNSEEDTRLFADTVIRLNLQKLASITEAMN; partner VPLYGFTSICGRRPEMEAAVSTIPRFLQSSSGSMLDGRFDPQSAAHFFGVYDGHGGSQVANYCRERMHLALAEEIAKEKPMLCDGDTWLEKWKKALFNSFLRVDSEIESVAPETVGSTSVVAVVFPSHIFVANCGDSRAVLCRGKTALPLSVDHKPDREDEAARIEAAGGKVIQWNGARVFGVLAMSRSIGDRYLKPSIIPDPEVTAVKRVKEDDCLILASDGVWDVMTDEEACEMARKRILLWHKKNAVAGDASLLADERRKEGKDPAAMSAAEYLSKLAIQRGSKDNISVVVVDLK
Variant | relative binding score
T160W | 21.1%
K126F | 68.5%
S104K | 6.57%
T154F | -12.5%
D92F | -4.2%
V43T | 20.1%
I133G | 90.5%
N61H | 77.2%

Series 3 — technique: RNA Bind-n-Seq; molecule type: RNA; medium: in vitro; concentration: 365 nM; baseline: no-protein control; reading: higher = stronger binding
Target: RNA binding protein fox-1 homolog 2, RRM domain, GST-SBP tag (RBFOX2, Homo sapiens, UniProt O43251-10, residues 100-194)
Notes: natural RNA segment, single round, ends assumed
All sequences stand within: GGGAGUUCUACAGUCCGACGAUC … UGGAAUUCUCGGGUGCCAA
Construct (chain): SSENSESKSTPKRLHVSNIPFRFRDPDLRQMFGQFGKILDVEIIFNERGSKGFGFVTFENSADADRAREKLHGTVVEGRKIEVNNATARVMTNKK
Sequence | RBNS enrichment (R)
AAAGGGUCCCUACGUUUUACAUUGAUUAAUGAAUUAUCACCCAGACAUGUGCAGAUGAAAUGUCAAUAUAAGAAAAAUCAAGGUAUUUGGGAAACAUGGGCAUAAUCAGG | 0.822
CCAGUUGUUAGGCUGCCCCCCUGAGCCUCACCUUGUUCACCUUGGUUUUCCGAUGAUGAGCUUCCCUAGACAGAUCAUGCUCCACGUCCACGGUGUUCUCAGCACCGUGA | 0.306
AGACUGUUGAUGAUAUGAAGGCCUUUUGUAAGAAAAUAAAAAAUAAAGUAAAUUGCCUGUCUCUCUGGUUGGGCUUGAGAUUUAAGGUCUGUGGACAUGCACAGGAUUGG | 1.97
GUGUUCUCUUUUGUUAUUUUACUUAGGGUAUAUGGAUAUUUUGCAAUAAUUUUAAUGAUUCUUAAGCUAUUUGAAGGAAAGAAUAUGGAUUUCUCAUGUCUUGAGGUUUU | 1.24
AAUAGUAUGGGGUAAGUACCCUACCUCUUAUAAAGGGCAAAAUGGAAAAGAAGUUUUCUUACAAACCAAAGGGCUUUAGGGAGGACGUUAGGGUUAUAGCUGUGGACUGA | 0.463
AGUGUGGCCAAGCAGAAGUGGAUGUUUAUGAUGACGGUGGGGGCCCAGAGGUCAUAGGUGAUGGUCCUACUGCCCAACAGUUGCCUUUUGAAUCCUUAUGUUGAUGAUGG | 1.25
GUUGUAGAAAGGAAAGUGGCCAGAAAGAACAACUUGGGACCAUGAGUAGGUCAUUAAAUAGCUUAGUGAUUUAUCCUCAUAUAGGGCUUAUAAACCCUGUAUGUGUUUAU | 0.408
UUUGCAAAGCAGUGCAGAAAACUAUAAUCAAAUGUGACAUGUCUAUAAAAUAAUUUUGACAUAACAGACAUGAACAGACAUAAGAACGGCUUCCAAUGUUAAUUGAUAAU | 0.621

Other studies, line by line
P1: viral docking peptide; TSVRRALFTGGSD; partner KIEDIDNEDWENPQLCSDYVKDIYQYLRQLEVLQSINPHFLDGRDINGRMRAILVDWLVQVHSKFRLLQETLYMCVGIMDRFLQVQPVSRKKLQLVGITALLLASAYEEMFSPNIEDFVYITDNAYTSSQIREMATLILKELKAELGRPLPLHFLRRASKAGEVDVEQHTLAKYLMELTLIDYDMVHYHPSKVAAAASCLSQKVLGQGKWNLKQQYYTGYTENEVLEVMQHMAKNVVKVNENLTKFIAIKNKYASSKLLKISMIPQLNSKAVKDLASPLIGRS
Substance | target | test | system | conditions | how to read | endpoint | result
P1 V3R | CCNB2, cyclin fold, Cln2 fusion (human) | yeast growth competition, sequencing | yeast | strong parent motif | baseline: not given, higher = stronger binding | normalised enrichment score | 0.735
TTFPVNGGY | HLA class I histocompatibility antigen, A alpha chain, allele A*80:01 (Homo sapiens, UniProt P04439) | peptide-MHC binding | peptide | concentration not given |  | binding | inactive

Some of these lines once more (series 2):
Variant | relative binding score
T160W | 21.1%
